Measured values of several laboratories.
Each line is one published result; not all experiments were run side by side. Values joined by “and” are separate records of one study, mostly repeats; a detail may differ.

Compound | target or system | assay | test system | setting | scale | endpoint | value
C=CC(=O)Nc1cccc(Cn2ncc3cnc(Nc4cnn(CCOC)c4)nc32)c1 | CDKL2 human | binding, KINOMEscan | – | 100 nM | lower = stronger binding | percent of control | 69%
Cc1ncsc1-c1ccc(C(C)NC(=O)C2CC(O)CN2C(=O)C(NC(=O)CCCCCCCCCCN2CCCC(Nc3ncc(Cl)c(Nc4ccccc4S(=O)(=O)C(C)C)n3)C2)C(C)(C)C)cc1 (centres unmarked) | 22Rv1 | RNA-seq, refers to: LRFN2 mRNA | – | concentration not given | reference: DMSO | log2 fold change | -3.29
Cc1nc(NCCNc2ncc(C(=O)NC3=NN(c4ccc(Cl)c(Cl)c4)CC3)c(C)n2)ncc1C(=O)NC1=NN(c2ccc(Cl)c(Cl)c2)CC1 | K562 | cell growth or viability, ATP luminescence | – | 72 h | – | EC50 | > 5000 nM
COc1ccccc1-c1ccncc1C(=O)Nc1nnc(OCc2ccc(Cl)cc2)s1 | MDA-MB-436 | – | – | 0.375 µM | – | colony count | 14 and 15 and 13 and 16
CCN(CC)CC(=O)Nc1cccc(-n2cc(-c3ccc4ccc(-c5cn(-c6cccc(NC(=O)CN(CC)CC)c6)nn5)cc4c3)nn2)c1 | RCC4 | PCR angiogenesis array, refers to: IL8 | – | 5 x IC50, 6 h, normoxia | reference: untreated | fold regulation | -3.31
CC(C)c1ccc(N(C)c2ccc3c(c2)OCC[C@H]3CNc2cnccc2C(=O)O)cc1 | KM12 | cell viability, CellTiter-Glo | – | 7 days | – | IC50 | 7.34 nM
CN1CCCNC(=O)c2cccc(c2)C(=O)NCCCN(C)CCCNc2cccc3c2C(=O)c2cccc(c2C3=O)NCCC1 | SAS | RNA-Seq, refers to: SMIM19 mRNA | – | 1 µM, 6 h | reference: untreated cells | log2 fold change | 0.842
CNS(=O)(=O)Nc1nccc(Cc2c(C)c3ccc(Oc4ncccc4F)cc3oc2=O)c1F | DMS-53 | cell viability | – | 7 days | – | IC50 | > 1000 nM
CO[C@@H]1[C@@H](OC(N)=O)[C@@H](O)[C@H](Oc2ccc3c(O)c(NC(=O)c4ccc(O)c(CC=C(C)C)c4)c(=O)oc3c2C)OC1(C)C | HCT-116 BRCA2-/- | – | – | 100 µM, replicate 1 | – | colony count | 16
COC1CN([C@H]2CC[C@H]([C@@]3(C)Oc4c(Cl)cc(C(=O)NCc5c(SC)cc(C)[nH]c5=O)c(C)c4O3)CC2)C1 | – | RNA-seq, refers to: NKD2 | human, whole blood | dose not given, 24 h | reference: pretreatment baseline | log2 fold change | 7.36
Cn1ncc2cc(-c3cncc(Cl)c3N3CCC4(CCNC4=O)CC3)ccc21 | LS174T | gene expression, microarray, refers to: MT1E mRNA | – | concentration not given, 24 h | reference: untreated cells | log2 fold change | -3.39

Excerpt of the above:
Compound | target or system | assay | test system | setting | scale | endpoint | value
CNS(=O)(=O)Nc1nccc(Cc2c(C)c3ccc(Oc4ncccc4F)cc3oc2=O)c1F | DMS-53 | cell viability | – | 7 days | – | IC50 | > 1000 nM
